# Measurements pooled from the literature.
# Numbers after ± are the reported error.
Molecule,test,system,conditions,scale,measurement,value
COC(=O)N[C@H](C(=O)N1CCC[C@H]1C(=O)Nc1ccc([C@@H]2CC[C@@H](c3ccc(NC(=O)[C@@H]4CCCN4C(=O)[C@@H](NC(=O)OC)C(C)C)cc3)N2c2ccc(C(C)(C)C)cc2)cc1)C(C)C,,"healthy human volunteers, plasma","oral, dose not given, alone, escitalopram interaction study",,AUC(0-24),1270 ng·h/mL
CSCC[C@@H]1NC(=O)[C@H](CC(=O)O)NC(=O)CNC(=O)[C@H](CCCNC(=N)N)NC(=O)[C@H](C)NC(=O)[C@H](CCC(=O)O)NC(=O)[C@H](CCCNC(=N)N)NC(=O)[C@@H]2CSSC[C@@H]3NC(=O)[C@H](CO)NC(=O)[C@H]([C@@H](C)O)NC(=O)[C@@H]4CCCN4C(=O)[C@H](C)NC(=O)[C@H](Cc4c[nH]c5ccccc45)NC(=O)[C@H](CC(=O)O)NC(=O)CNC(=O)[C@H](CCCNC(=N)N)NC(=O)CNC(=O)[C@H](CCC(N)=O)NC(=O)[C@@H]4CCCN4C(=O)[C@@H](NC(=O)CNC(=O)C(C)F)CSSC[C@H](NC(=O)CNC(=O)[C@H](C)NC(=O)[C@H](CC(C)C)NC(=O)[C@H](CSSC[C@@H](C(=O)NCC(N)=O)NC(=O)[C@H]([C@@H](C)O)NC(=O)[C@H](CCCNC(=N)N)NC(=O)[C@@H]4CCCN4C1=O)NC(=O)[C@H](CC(=O)O)NC(=O)[C@H](CO)NC(=O)[C@H](CC(=O)O)NC(=O)[C@H](CCC(N)=O)NC(=O)[C@H](CO)NC3=O)C(=O)N[C@@H](C(C)C)C(=O)N2 (some centres unmarked) [fluorine-18 labelled],,"nude mice U-87 MG xenograft, bone","intravenous, 2.5 h",,tissue uptake,0.2 ± 0.17 %ID/g
CCCCCCCCCCCCCC[N+](C)(C)C,substrate depletion,human liver microsomes,"0.5 µM, 0 to 3 h, 37 °C, together with: NADPH",,intrinsic clearance,0.088 mL/h/mg protein
CS(=O)(=O)CCCn1c(Cn2c(=O)n(CC(F)(F)F)c3ccncc32)cc2cc(Cl)ccc21,,RSV-infected infants,"concentration not given, mid dose cohorts",,patients with high MCH,8%
Oc1cccc2ccccc12,fish short-term reproduction,"Oryzias latipes, male, water, flow-through","258 µg/L, end of exposure",,body weight,598 ± 30 mg
CNC(=O)c1ccc(-c2cnn3ccc(C(=O)N(C)c4ccc(Cl)c(C(=O)OC)c4)cc23)cc1,,"rat, Wistar or Sprague Dawley, male, plasma, hepatic portal vein","oral, 100 mg/kg",,Cmax,531 nM
CCCCCOc1ccc(-c2cc(-c3ccc(C(=O)N[C@H]4C[C@@H](O)[C@@H](O)NC(=O)[C@@H]5[C@@H](O)[C@@H](C)CN5C(=O)[C@H]([C@H](O)CC(N)=O)NC(=O)[C@H]([C@H](O)[C@@H](O)c5ccc(O)c(OS(=O)(=O)O)c5)NC(=O)[C@@H]5C[C@@H](O)CN5C(=O)[C@H]([C@@H](C)O)NC4=O)cc3)no2)cc1,,"infants below 1000 g, plasma","intravenous infusion, 10 mg/kg/day, day 4, 1 h infusion",,AUC(0-24),308000 ng·h/mL
COc1cccc2c1cc([N+](=O)[O-])c1c(C(=O)O)cc3c(c12)OCO3,HPLC,"rat (Wistar, male), urine","subcutaneous, 2 mg, 24 h collection",,urine concentration,0.2 µM
[Met(O)35]Aβ42,CD spectroscopy,10 mM sodium phosphate,"10 µM, pH 7.4, 25 °C, agitation 200 rpm",,time to β-sheet transition,48 to 72 h
COc1ccc(C[C@@H]2NC(=O)[C@H]([C@@H](C)O)NC(=O)[C@@H]3[C@@H]4CCN3C(=O)[C@@H]3Cc5cn(c6ccc(F)cc56)CCCCCCN(Cc5ccc(cc5)CCNC(=O)[C@]5(C)CCCN5C2=O)C(=O)CCC(=O)N[C@@H](C)C(=O)N[C@H](CNC(=O)CCCCC[N+](C)(C)C)C(=O)N[C@@H](Cc2cccc(c2)CNC(=O)CO4)C(=O)N3)cc1,,"fasted healthy humans, plasma","oral, 300 mg single dose, with 1800 mg Labrasol, geometric mean",,AUC(0-t),2 µM·h
CCCCCOc1ccc(-c2cc(-c3ccc(C(=O)N[C@H]4C[C@@H](O)[C@@H](O)NC(=O)[C@@H]5[C@@H](O)[C@@H](C)CN5C(=O)[C@H]([C@H](O)CC(N)=O)NC(=O)[C@H]([C@H](O)[C@@H](O)c5ccc(O)c(OS(=O)(=O)O)c5)NC(=O)[C@@H]5C[C@@H](O)CN5C(=O)[C@H]([C@@H](C)O)NC4=O)cc3)no2)cc1,,"infants on ECMO, plasma","intravenous, 4 mg/kg every 24 h, 72 to 96 h",,AUC,117000 ng·h/mL
COc1ccc2c3c1O[C@H]1C[C@@H](O)C=C[C@@]31CCN(C)C2,in situ brain perfusion,"CF-1 mouse, wild type, male","1 µM, pH 7.4",,brain uptake clearance Kin,19 mL/100 g/min
CCCCCCCCCCCC[N+](C)(C)C,substrate depletion,human liver microsomes,"0.5 µM, 0 to 3 h, 37 °C, together with: NADPH",,intrinsic clearance,0.127 mL/h/mg protein
O=C(OC(C(F)(F)F)C(F)(F)F)N1CCN(Cc2ccc(C(F)(F)F)cc2N2CCCC2)CC1,,PBS,"20 h, pH 7.4, 20 °C",,solubility,< 1 µg/mL
CC[C@H](C)C(=O)O[C@H]1C[C@H](O)C=C2C=C[C@H](C)[C@H](CC[C@@H](O)C[C@@H](O)CC(=O)O)[C@H]21,,"healthy volunteers, plasma","oral, dose not given, together with: 2D regimen",,AUC,86 ng·h/mL
N=C(N)NCCC[C@H](NC(=O)[C@H](Cc1c[nH]c2ccccc12)NC(=O)[C@H](CCC(N)=O)NC(=O)[C@H](Cc1c[nH]c2ccccc12)NC(=O)[C@H](CCCNC(=N)N)NC(=O)[C@H](Cc1c[nH]c2ccccc12)NC(=O)[C@H](CCC(N)=O)NC(=O)[C@H](Cc1c[nH]c2ccccc12)NC(=O)[C@H](CCCNC(=N)N)NC(=O)CCCCCN)C(N)=O,,human erythrocytes O+,"200 µg/mL, 2 h, 37 °C",,hemolysis,7.7%
O[C@H]1CCCN[C@@H]1CCCn1cnc2c(Cl)c(Cl)ccc21,,"human, plasma","oral, 100 mg single dose, solution, geometric mean",,mean residence time,5.17 h
CCc1ccccc1Nc1ccc2c(c1)C(c1ccccc1F)=NC(C)C(=O)N2 (centres unmarked),shake flask,PBS,"24 h, pH 7.4",,solubility,< 1 µM
CC[C@H](C)[C@H](NC(=O)[C@@H](N)CCCNC(=N)N)C(=O)N[C@H](C(=O)N1CCC[C@H]1C(=O)N[C@@H](C)C(N)=O)C(C)C,,"healthy volunteers, both sexes, plasma","intravenous infusion, 6.5 mg/kg daily, day 7, multiple ascending dose",,Tmax,4 min
C=C1C(=O)O[C@@H]2C[C@@H](C)[C@@H]3C=CC(=O)[C@@]3(C)[C@@H](O)[C@H]12,propidium iodide flow cytometry,"primary splenocytes, BALB/c mouse","48 h, 10% fetal calf serum",,CC50,0.32 ± 0.3 µg/mL
CC[C@H](C)[C@@H]1NC(=O)[C@H]([C@@H](C)O)NC(=O)[C@@H](NC(=O)[C@H](Cc2ccccc2)NC(=O)[C@H](C)NC(=O)[C@H](CCCCN)NC(=O)[C@H](CCCCN)NC(=O)[C@H](C)NC(=O)[C@@H](NC(=O)[C@H](CCCCN)NC(=O)[C@H](C)NC(=O)[C@H](C)NC(=O)[C@@H](NC(=O)CNC(=O)[C@H](C)NC(=O)[C@@H](NC(=O)[C@H](CCCCN)NC(=O)[C@@H]2CCCN2C(=O)[C@H](Cc2ccccc2)NC(=O)[C@@H](N)Cc2ccccc2)C(C)C)C(C)C)C(C)C)CSSC[C@@H](C(=O)O)NC(=O)[C@H](CCCCN)NC(=O)[C@H](CCCCN)NC(=O)[C@H](CO)NC1=O,haemolysis,horse erythrocytes,"2 h, 37 °C",,HC10,62.2 µM
Clc1cc2c(cc1Cl)Oc1cc(Cl)c(Cl)cc1O2,GC-HRMS,"zebrafish embryos, whole embryo, dry weight","waterborne, 50 ppt, 24 hpf",,internal concentration,0.22 ppt
ClC(Cl)(Cl)Cl,,"Sprague-Dawley rat, male, liver","oral, 50 mg/kg, 24 h",direction not given,hepatocyte necrosis score,0
CN[C@@H]1C[C@H]2O[C@@](C)([C@@H]1OC)n1c3ccccc3c3c4c(c5c6ccccc6n2c5c31)C(=O)N[C@@H]4O,,"human patients, plasma","intravenous infusion, 45 mg/m^2/day, 72 h infusion, median, cycle 1",,terminal half-life,361 h
COc1ccc(-c2cc(=O)c3c(OC)c(OC)c(OC)c(OC)c3o2)cc1OC,,"C57BL/6 mouse, male, colon","oral, 1% w/w in diet, 6 weeks, orange peel extract diet",reference: content in orange peel,tissue to peel content ratio,0.248%
CCCN1C[C@H](C)N([C@H](c2ccc(C(=O)N(CC)CC)cc2)c2cccc(OC)c2)C[C@H]1C,,rat,no efflux inhibition,,log intrinsic permeability,-4.06
CCCCCOc1ccc(-c2cc(-c3ccc(C(=O)N[C@H]4C[C@@H](O)[C@@H](O)NC(=O)[C@@H]5[C@@H](O)[C@@H](C)CN5C(=O)[C@H]([C@H](O)CC(N)=O)NC(=O)[C@H]([C@H](O)[C@@H](O)c5ccc(O)c(OS(=O)(=O)O)c5)NC(=O)[C@@H]5C[C@@H](O)CN5C(=O)[C@H]([C@@H](C)O)NC4=O)cc3)no2)cc1,,"preterm neonates ≥1000 g, plasma","intravenous, 15 mg/kg/day, repeated dosing, mean",,clearance,0.51 mL/min/kg
[123I]c1cncc(OC[C@@H]2CCN2)c1,SPECT,"human, parietal lobe","intravenous bolus, 9.1 mCi",reference: tissue over plasma,tissue/plasma ratio,10.9
NC(=O)c1nc(F)c[nH]c1=O,UV-Vis spectrophotometry,supercritical CO2,"120 min, 338 K, 15 MPa, 555.23 kg/m^3",,solubility,74 µg/mL
CN[C@@](C)(C[18F])C(=O)O,,"SCID mouse DU-145 xenograft, lung","15 min, post injection",,tissue uptake,2.7 ± 0.7 %ID/g
CC(=O)N[C@H](CCCCNC(=O)C(C)F)C(=O)N[C@@H](CS)C(=O)N[C@@H](CS)C(=O)N[C@@H](CCC(=O)O)C(=O)N[C@@H](Cc1c[nH]cn1)C(=O)N[C@H](Cc1ccccc1)C(=O)N[C@@H](CCCNC(=N)N)C(=O)N[C@@H](Cc1c[nH]c2ccccc12)C(=O)N[C@@H](CS)C(=O)N[C@@H](CCCNC(=N)N)C(=O)N1CCC[C@H]1C(=O)N[C@H](C(N)=O)C(C)C (some centres unmarked) [fluorine-18 labelled],,"C57BL/6 mice, male, B16-F10 tumour, lung","intravenous, 2 h",,tissue uptake,0.8 ± 0.03 %ID/g
O=C(O)C(F)(F)C(F)(F)C(F)(F)C(F)(F)C(F)(F)C(F)(F)C(F)(F)F,,C57BL/6J mice,"oral, dose not given, 12 weeks",reference: mice over human general population,plasma concentration ratio,2000 to 6000 fold

# Repeated from above:
Molecule,test,system,conditions,scale,measurement,value
COc1ccc(C[C@@H]2NC(=O)[C@H]([C@@H](C)O)NC(=O)[C@@H]3[C@@H]4CCN3C(=O)[C@@H]3Cc5cn(c6ccc(F)cc56)CCCCCCN(Cc5ccc(cc5)CCNC(=O)[C@]5(C)CCCN5C2=O)C(=O)CCC(=O)N[C@@H](C)C(=O)N[C@H](CNC(=O)CCCCC[N+](C)(C)C)C(=O)N[C@@H](Cc2cccc(c2)CNC(=O)CO4)C(=O)N3)cc1,,"fasted healthy humans, plasma","oral, 300 mg single dose, with 1800 mg Labrasol, geometric mean",,AUC(0-t),2 µM·h
[Met(O)35]Aβ42,CD spectroscopy,10 mM sodium phosphate,"10 µM, pH 7.4, 25 °C, agitation 200 rpm",,time to β-sheet transition,48 to 72 h
